Results pooled from the literature.
Parts stem from different laboratories: compare values within a part only.
Sequence of UniProt P49137 (whole entry, looked up): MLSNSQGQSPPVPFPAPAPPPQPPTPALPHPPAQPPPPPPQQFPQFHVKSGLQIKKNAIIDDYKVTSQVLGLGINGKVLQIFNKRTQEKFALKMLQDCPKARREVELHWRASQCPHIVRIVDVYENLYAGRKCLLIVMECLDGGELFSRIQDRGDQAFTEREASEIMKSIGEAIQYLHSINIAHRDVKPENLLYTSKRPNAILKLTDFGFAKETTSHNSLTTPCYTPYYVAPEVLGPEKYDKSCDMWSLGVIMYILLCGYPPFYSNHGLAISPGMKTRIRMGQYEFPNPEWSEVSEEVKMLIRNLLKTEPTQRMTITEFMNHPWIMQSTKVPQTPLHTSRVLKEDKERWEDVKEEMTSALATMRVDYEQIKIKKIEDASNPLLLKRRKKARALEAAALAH
Sequence of UniProt Q00535 (whole entry, looked up): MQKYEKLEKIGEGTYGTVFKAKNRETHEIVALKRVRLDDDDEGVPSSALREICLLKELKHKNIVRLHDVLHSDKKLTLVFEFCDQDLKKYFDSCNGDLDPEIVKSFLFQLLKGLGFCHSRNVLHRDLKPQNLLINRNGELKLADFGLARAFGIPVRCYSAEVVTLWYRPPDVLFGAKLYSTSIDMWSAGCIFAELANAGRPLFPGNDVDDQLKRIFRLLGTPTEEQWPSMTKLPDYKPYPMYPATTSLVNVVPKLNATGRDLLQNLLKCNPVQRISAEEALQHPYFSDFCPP
Sequence of UniProt Q9H2G2 (whole entry, looked up): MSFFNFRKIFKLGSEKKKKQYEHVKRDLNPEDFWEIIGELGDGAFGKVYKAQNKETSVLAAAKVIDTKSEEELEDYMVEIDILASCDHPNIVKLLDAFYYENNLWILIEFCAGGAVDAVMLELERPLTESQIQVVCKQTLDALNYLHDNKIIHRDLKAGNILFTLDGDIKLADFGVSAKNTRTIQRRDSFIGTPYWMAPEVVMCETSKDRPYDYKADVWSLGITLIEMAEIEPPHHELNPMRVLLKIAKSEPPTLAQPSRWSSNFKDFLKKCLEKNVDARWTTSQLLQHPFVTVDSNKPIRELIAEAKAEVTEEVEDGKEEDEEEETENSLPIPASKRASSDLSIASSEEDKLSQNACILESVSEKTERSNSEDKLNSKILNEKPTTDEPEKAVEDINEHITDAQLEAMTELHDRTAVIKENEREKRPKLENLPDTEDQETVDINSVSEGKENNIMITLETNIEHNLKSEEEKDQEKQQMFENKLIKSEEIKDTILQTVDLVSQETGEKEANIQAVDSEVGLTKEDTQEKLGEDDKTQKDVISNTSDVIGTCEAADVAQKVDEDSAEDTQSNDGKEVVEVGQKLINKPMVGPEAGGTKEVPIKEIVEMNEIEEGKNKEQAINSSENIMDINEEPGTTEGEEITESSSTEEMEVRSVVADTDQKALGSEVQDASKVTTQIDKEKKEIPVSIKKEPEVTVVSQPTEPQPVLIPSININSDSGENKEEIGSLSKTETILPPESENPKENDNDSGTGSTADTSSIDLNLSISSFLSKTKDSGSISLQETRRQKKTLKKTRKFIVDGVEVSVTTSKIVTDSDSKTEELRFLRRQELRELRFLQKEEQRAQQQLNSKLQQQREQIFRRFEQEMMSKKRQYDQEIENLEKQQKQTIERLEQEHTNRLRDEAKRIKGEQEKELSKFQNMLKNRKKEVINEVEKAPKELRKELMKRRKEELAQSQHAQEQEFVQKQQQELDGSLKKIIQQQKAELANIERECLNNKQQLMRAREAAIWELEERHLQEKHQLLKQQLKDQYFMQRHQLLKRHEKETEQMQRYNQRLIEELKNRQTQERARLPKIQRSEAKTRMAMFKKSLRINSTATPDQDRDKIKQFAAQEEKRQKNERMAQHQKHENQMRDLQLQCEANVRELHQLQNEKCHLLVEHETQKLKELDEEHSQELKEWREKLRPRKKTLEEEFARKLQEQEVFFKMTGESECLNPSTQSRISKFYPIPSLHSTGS
Sequence of UniProt P57078 (whole entry, looked up): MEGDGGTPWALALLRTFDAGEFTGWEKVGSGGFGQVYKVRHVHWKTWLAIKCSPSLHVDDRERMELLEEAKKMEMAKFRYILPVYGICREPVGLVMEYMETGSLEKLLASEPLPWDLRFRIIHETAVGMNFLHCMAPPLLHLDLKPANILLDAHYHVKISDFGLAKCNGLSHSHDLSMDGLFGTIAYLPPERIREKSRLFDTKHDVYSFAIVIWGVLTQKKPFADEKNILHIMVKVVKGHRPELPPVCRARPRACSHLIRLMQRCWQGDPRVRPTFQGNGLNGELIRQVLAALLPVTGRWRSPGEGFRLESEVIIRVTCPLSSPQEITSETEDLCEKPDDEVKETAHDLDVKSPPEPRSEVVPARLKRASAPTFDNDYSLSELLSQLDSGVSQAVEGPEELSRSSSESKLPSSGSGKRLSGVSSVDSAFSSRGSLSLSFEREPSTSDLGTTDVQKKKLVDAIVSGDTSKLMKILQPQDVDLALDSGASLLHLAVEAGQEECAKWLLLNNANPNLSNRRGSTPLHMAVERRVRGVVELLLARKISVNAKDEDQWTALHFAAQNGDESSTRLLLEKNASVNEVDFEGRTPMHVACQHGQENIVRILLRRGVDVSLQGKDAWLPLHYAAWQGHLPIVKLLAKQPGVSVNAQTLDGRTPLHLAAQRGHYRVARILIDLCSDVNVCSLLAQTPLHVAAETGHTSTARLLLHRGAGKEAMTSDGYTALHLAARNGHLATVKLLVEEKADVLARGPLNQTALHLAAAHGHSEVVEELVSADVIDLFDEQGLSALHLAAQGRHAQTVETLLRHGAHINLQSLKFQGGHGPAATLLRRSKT
Sequence of UniProt Q59H18 (whole entry, looked up): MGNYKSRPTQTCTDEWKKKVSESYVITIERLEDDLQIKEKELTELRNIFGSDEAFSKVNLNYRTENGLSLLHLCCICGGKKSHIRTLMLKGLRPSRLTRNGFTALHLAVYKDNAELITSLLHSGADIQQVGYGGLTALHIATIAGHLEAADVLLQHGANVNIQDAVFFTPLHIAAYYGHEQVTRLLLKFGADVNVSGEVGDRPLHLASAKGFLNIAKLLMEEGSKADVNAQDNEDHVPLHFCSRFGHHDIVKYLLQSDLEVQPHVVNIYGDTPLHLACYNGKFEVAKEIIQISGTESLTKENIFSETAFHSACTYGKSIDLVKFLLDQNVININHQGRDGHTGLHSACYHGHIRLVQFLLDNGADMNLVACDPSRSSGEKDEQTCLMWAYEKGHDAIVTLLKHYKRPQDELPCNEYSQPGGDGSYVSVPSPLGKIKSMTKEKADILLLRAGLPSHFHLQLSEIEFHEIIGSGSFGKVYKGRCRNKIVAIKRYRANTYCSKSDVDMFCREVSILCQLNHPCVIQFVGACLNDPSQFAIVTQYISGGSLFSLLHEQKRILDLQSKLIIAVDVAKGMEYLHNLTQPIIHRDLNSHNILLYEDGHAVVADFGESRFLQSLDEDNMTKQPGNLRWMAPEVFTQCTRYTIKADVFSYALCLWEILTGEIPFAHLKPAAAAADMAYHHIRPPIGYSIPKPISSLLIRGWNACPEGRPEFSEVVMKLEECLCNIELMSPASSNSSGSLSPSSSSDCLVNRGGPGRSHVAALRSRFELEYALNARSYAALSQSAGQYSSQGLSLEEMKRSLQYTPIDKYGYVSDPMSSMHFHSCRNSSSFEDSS

Series 1 — read-out: cell-free assay; method: competition with immobilised ligand; tested at: 1 µM
Compound: Cc1nccc(COC(=O)N2C[C@@H]3[C@@H](CNC(=O)c4ccc5[nH]nnc5c4)[C@@H]3C2)n1
target	remaining binding [%]
Activin receptor type-2A (ACVR2A, Homo sapiens, UniProt P27037)	69
MAP kinase-activated protein kinase 2 (MAPKAPK2, Homo sapiens, UniProt P49137)	72
Cyclin-dependent kinase 2 (CDK2, Homo sapiens, UniProt P24941)	77
Cyclin-G-associated kinase (GAK, Homo sapiens, UniProt O14976)	100
Cyclin-dependent kinase 15 (CDK15, Homo sapiens, UniProt Q96Q40)	100
Inhibitor of nuclear factor kappa-B kinase subunit epsilon (IKBKE, Homo sapiens, UniProt Q14164)	100
Serine/threonine-protein kinase WNK4 (WNK4, Homo sapiens, UniProt Q96J92)	100
Serine/threonine-protein kinase 32A (STK32A, Homo sapiens, UniProt Q8WU08)	94
Serine/threonine-protein kinase TNNI3K (TNNI3K, Homo sapiens, UniProt Q59H18)	94
Receptor-type tyrosine-protein kinase FLT3 (FLT3, Homo sapiens, UniProt P36888)	89
Cyclin-dependent kinase 14 (CDK14, Homo sapiens, UniProt O94921)	100
Dual specificity protein kinase CLK2 (CLK2, Homo sapiens, UniProt P49760)	80
Discoidin domain-containing receptor 2 (DDR2, Homo sapiens, UniProt Q16832)	77
Macrophage colony-stimulating factor 1 receptor, autoinhibited (CSF1R, Homo sapiens, UniProt P07333)	100
Receptor-type tyrosine-protein kinase FLT3 (FLT3, Homo sapiens, UniProt P36888, ITD)	100
Receptor-interacting serine/threonine-protein kinase 4 (RIPK4, Homo sapiens, UniProt P57078)	98
Receptor-type tyrosine-protein kinase FLT3 (FLT3, Homo sapiens, UniProt P36888, K663Q)	100

Series 2 — read-out: enzyme activity; tested at: 10 µM
Structure (SMILES): Cc1sc(C(=O)NC2COC2)cc1-n1cc(NC(=O)Nc2c(F)cccc2Cl)cn1
target	action	reference	remaining activity
Protein kinase C theta type (PRKCQ, Homo sapiens, UniProt Q04759)	–	untreated control	96%
Homeodomain-interacting protein kinase 2 (HIPK2, Homo sapiens, UniProt Q9H2X6)	–	untreated control	98.6%
MAP kinase-activated protein kinase 2 (MAPKAPK2, Homo sapiens, UniProt P49137)	–	untreated control	89.9%
Calcium/calmodulin-dependent protein kinase type II subunit gamma (CAMK2G, Homo sapiens, UniProt Q13555)	–	untreated control	99.2%
Cyclin-dependent kinase 2, with cyclin A (CDK2, Homo sapiens, UniProt P24941)	–	untreated control	98.1%
Serine/threonine-protein kinase/endoribonuclease IRE2 (ERN2, Homo sapiens, UniProt Q76MJ5)	inhibitor	–	80.7%
Serine/threonine-protein kinase SBK1 (SBK1, Homo sapiens, UniProt Q52WX2)	–	untreated control	80.6%
Mitogen-activated protein kinase kinase kinase kinase 1 (MAP4K1, Homo sapiens, UniProt Q92918)	–	untreated control	95.4%
Serine/threonine-protein kinase 17A (STK17A, Homo sapiens, UniProt Q9UEE5)	–	untreated control	108%
STE20-like serine/threonine-protein kinase (SLK, Homo sapiens, UniProt Q9H2G2)	–	untreated control	99.1%
Cyclin-dependent kinase 5, with p35 (CDK5, Homo sapiens, UniProt Q00535)	–	untreated control	102%

Series 3 — read-out: enzyme activity; action: inhibitor; tested at: 0.5 µM; reference: control
Target: Receptor tyrosine-protein kinase erbB-4 (ERBB4, Homo sapiens, UniProt Q15303)
Sequence of UniProt Q15303 (whole entry, looked up): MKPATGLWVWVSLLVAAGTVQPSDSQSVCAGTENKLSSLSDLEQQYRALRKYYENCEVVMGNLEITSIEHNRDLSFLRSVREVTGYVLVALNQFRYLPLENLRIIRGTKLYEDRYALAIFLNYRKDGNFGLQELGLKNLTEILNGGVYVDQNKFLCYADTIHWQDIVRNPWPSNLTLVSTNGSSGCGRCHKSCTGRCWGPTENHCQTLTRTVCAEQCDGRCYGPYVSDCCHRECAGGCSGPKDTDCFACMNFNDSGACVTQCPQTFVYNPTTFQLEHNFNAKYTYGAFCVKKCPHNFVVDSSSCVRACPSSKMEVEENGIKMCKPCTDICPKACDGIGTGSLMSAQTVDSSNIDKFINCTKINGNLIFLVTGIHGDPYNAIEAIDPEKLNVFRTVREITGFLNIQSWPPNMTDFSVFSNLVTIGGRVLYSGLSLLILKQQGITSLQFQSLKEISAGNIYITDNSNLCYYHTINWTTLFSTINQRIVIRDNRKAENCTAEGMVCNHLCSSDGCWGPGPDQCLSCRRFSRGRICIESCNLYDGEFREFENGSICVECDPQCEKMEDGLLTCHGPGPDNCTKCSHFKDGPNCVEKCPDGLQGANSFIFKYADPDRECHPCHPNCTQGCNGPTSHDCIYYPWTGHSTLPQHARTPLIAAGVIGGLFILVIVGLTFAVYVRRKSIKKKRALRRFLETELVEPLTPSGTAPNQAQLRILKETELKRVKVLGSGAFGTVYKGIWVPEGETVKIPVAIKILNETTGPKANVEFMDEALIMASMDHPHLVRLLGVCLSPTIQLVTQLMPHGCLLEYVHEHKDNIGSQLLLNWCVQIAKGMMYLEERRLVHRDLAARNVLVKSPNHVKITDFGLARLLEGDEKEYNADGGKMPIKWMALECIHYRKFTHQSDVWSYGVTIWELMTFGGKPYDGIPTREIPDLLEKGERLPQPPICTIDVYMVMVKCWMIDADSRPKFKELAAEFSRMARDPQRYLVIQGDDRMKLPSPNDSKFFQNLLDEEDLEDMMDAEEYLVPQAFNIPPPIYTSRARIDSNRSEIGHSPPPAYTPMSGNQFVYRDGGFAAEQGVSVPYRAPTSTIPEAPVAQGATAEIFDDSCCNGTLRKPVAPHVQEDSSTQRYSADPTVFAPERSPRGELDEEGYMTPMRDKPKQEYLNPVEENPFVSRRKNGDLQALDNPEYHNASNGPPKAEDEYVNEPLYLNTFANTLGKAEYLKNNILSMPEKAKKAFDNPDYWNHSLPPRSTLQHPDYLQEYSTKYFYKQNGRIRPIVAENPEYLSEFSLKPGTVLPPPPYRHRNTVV
Compound	remaining activity
CN(C)S(=O)(=O)c1ccc2c(c1)/C(=C/c1cc3c([nH]1)CCCC3)C(=O)N2	106%
Cc1ccc(S(=O)(=O)/C=C/C#N)cc1	99.7%
CCCCc1c(-c2ccc(OC)cc2)[nH]c2nccnc12	109%
COc1ccc(COc2ccc(Cc3cnc(N)nc3N)cc2OC)cc1	110%
O=c1cc(N2CCOCC2)oc2c(-c3ccccc3)cccc12	102%
O=Nc1c(-c2c(O)[nH]c3cc(Br)ccc23)[nH]c2ccccc12	96.8%
Cc1cc(Nc2cc(N3CCN(C)CC3)nc(Sc3ccc(NC(=O)C4CC4)cc3)n2)[nH]n1	93.1%
c1ccc2c(-c3ccncc3)c[nH]c2c1	83.7%
COc1ccc2c(c1)c(C1=C(c3c[nH]c4ccccc34)C(=O)NC1=O)cn2CCCN(C)C	93.4%
O=C1Nc2ccc(Br)cc2/C1=C/c1cc2c([nH]1)CCCC2	84.6%
O=C1NC(=O)c2c1c1c3ccccc3[nH]c1c1[nH]c3cc(Br)ccc3c21	101%
c1ccc(-c2n[nH]c3c2oc2ccccc23)cc1	89.7%
O=C(c1cc2cc(O)ccc2[nH]1)c1cc2cc(O)ccc2[nH]1	102%
O=C1Nc2ccccc2/C1=C\c1c(Cl)[nH]c2ccccc12	103%
O=C1Cc2c([nH]c3ccc(Br)cc23)-c2ccccc2N1	101%
O=C1NC(=O)c2c1c1c3ccccc3[nH]c1n1cncc21	102%
N#Cc1cnc2cnc(NCc3cccnc3)cc2c1Nc1ccc(F)c(Cl)c1	72.6%
COc1cccc(-c2cc(=O)c3ccccc3o2)c1N	94.7%
Oc1cccc(-c2nc(N3CCOCC3)c3oc4ncccc4c3n2)c1	97.6%

Series 4 — species: human; sample: microsomes or S9; tested at: 2 µM; time: 0.5 h
Compound	remaining compound
CCc1cc2c3c([nH]c2cc1S(=O)(=O)Nc1ccc2c(c1)OCCO2)CC(C)(C)CC3=O	10.9%
CCn1ncc(Cl)c1-c1nc2c3cnn(C)c3ncn2n1	99%
CC(C)(C)OC(=O)N1CCCn2c1nn(-c1cc(-c3cccc(C#N)c3)ccc1N)c2=O	41.7%
CCc1ccc2ncc3c(-c4ccc(F)cc4)n[nH]c3c2c1	1.98%
O=C1C2CN(Cc3cncs3)CCN2C(=O)N1c1ccccc1 (stereo not drawn)	92.9%
COc1ccc(C2C(C(=O)N3CCN(c4ccccn4)CC3)CCC(=O)N2c2cc(OC)c(OC)c(OC)c2)cc1 (stereo not drawn)	61.6%
CCN(CC)C(=O)CN(C)Cc1nc(-c2nc[nH]n2)no1	> 100%
Brc1cccc(Nc2ncnc3cc4c(cc23)OC(COCc2ccccc2)CO4)c1 (stereo not drawn)	0.77%
COCCn1c(C)cc(C)c(C(=O)NCCNc2ncccn2)c1=O	92%
O=C(CS(=O)(=O)c1ccccc1)NC(c1ccccc1)c1ccccc1	> 100%
Cc1cc(C)nc(SCc2nc3scc(C)n3c2Br)n1	0.477%
CC1(C)CC(=O)C(C(Cc2ccccc2)C2=C(O)CC(C)(C)CC2=O)=C(O)C1	< 1%
Cc1c(C(=O)NC2CCN(Cc3ccc(OCCCN(C)C)cc3)CC2)cnn1-c1ccccc1	> 100%

A few entries again (series 3):
Compound	remaining activity
COc1ccc2c(c1)c(C1=C(c3c[nH]c4ccccc34)C(=O)NC1=O)cn2CCCN(C)C	93.4%
CN(C)S(=O)(=O)c1ccc2c(c1)/C(=C/c1cc3c([nH]1)CCCC3)C(=O)N2	106%
COc1cccc(-c2cc(=O)c3ccccc3o2)c1N	94.7%
COc1ccc(COc2ccc(Cc3cnc(N)nc3N)cc2OC)cc1	110%
